Measured values of several laboratories.
Each numbered part is a random draw from the data of one study; scales do not carry over between parts.

Block 1 — method: RNA Bind-n-Seq; molecule type: RNA; sample: in vitro; concentration: not given; setting: RNA with constant flanks, ends assumed; relative to: input RNA pool; direction: higher = stronger binding
Target: RING finger protein unkempt homolog, zinc fingers 1-6, GST-SBP tag (UNK, Homo sapiens, UniProt Q9C0B0, residues 30-357)
Chain of UniProt Q9C0B0 (30-357, looked up): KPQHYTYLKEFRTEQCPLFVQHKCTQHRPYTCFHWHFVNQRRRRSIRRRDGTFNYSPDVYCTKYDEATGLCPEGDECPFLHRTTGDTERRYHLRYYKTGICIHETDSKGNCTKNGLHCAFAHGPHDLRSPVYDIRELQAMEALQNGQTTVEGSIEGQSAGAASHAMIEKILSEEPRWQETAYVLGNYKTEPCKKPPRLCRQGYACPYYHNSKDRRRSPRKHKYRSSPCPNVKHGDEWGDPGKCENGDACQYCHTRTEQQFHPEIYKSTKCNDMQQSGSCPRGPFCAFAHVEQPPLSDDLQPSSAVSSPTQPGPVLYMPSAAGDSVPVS
Constant ends, left off below: GGGAGUUCUACAGUCCGACGAUC … CAACAGAGGAUUGAGCAUCA
For `CACCUAAGAGAUAAGAGCACCGACUGCUGUGGGGAUAAUGAUCCCAUUGACGUCUGUGAAACCGGCUCAAAGGUUCUUUCCCGUGGAGACGUGGUCCAUGUGAAGAUCCUUGGGACUUUG`, the bound/input enrichment was 0.106 ratio.
`UUUCCUUCUUUUGGAAGUGGAUUUCCUGCUUUUGAUACAGGCUUCACUCCAUUUGGGUCACCCGGUCAUGGGGGUCUCACUUCAUUUUCUUCAACGUCAUUUGGCGGCAGUGGAAUGGGC` has a bound/input enrichment of 0.172 ratio.
For `CUGACCCAUAAUAAUGGAAAGUUUAACAGUGACUCACAUUCUCCUAAAGUUUCCAGCCAGAACCGGACACGCUUAUUUGGUCAUUUUCCCGGGCCAGAGUUCUUGGACAUAGAGAAAACU`, the bound/input enrichment was 0.351 ratio.
The bound/input enrichment of `GUUUACUCUCAGAGCACAGCUCUUACUCAUAAGCAGUCUUAUUAUUCCAUUGCCAAAUGUGCCGCUGCCCUUACUCGAGCAUGCCCUAAAGAGGGACCAGCUGUAGUAGGUCAGUUUAUU` is reported as 0.191 ratio.
`AUUGUAUAUUAUGAACAGCUGACUAAACAUAAUCACCACAGAAUAAGACAAUAUCAUAUAACCGAUUAAAAUGUUGUGCAUCCUUUUGUCUGGUUAAAAAUUUUUUAAAAAAACUUCAAU` gave a bound/input enrichment of 0.901 ratio.
The bound/input enrichment of `AAAGUCACCUCUCCUGUGUUGGUCAUUCAUGGUACAGAGGAUGAGGUCAUCGAUUUCUCCCAUGGCCCCGCGAUGUACGAGCGCUGUCCCCGAGCCGUGGAGCCCCUUUGGGUUGAAGGG` is reported as 0.113 ratio.
With `UUCAUCUAUUUGUGUACAAAAUGAUGUCGUUUUGAGGGAAUUUAAGUAUUUAAAUUGCUUCACCGUCUAAAUUAUUAAUUUUCUUAAUAAAAUAACUGUUUAAACAUUGAUUUGCAGUUA` the bound/input enrichment was 0.298 ratio.
With `UUCACCGAGCUCAUUAAAGGAUUCGGUUGCCGAGGGGCCCAAGUAGAAGAAAUAUGGAGCUCCGAACCUGAGAGUUUUGAAAAGCUAAAGCCAGUUCAUGGGUUAAUUUUUCUUUUCAAG` the bound/input enrichment was 0.241 ratio.
`CAUGUGUGUCUAUGUGUCUCUUGUUUUUCUUGCAUGUGUAUAUGUGUACUGCUUAUACACCUCCGUCUGUGGAGUUCAAAAGAAUCCAUUGUUUAACCUGGAUGGUUGUGAGUCAGUAUG` has a bound/input enrichment of 0.265 ratio.
`CUCCUGGCCAGACGCUGCCGCUGCCGCUGCACCACGGCGUUUUUUUACAACAUUCAACUUCCGUAUUUUUACUAUUAUAAUAUAAUAUGGAACCUUCCCUCCAAAUUCUUCAAUAAAAGU` has a bound/input enrichment of 1.05 ratio.
`GGGCCUCUGUUCAAUACCGACUAUGACAUCCUUAAAAGCAAUUUGCAGAACUGCAGCAAGUUCCGUGCCAUACAGUGUGCAGCUGCAGUCCCCAGAGCUCCUGCAGAAUCCCCAUCUUCC` has a bound/input enrichment of 0.286 ratio.

Block 2 — method: protein-binding microarray; molecule type: double-stranded DNA, one strand shown; sample: in vitro; concentration: 2540 nM top; setting: 60-bp whole probe; with: salmon DNA 0.4 mg/ml; relative to: random background probes; direction: higher = stronger binding; constant ends, left off below: GCCTAGCAC … GTCTTGATTCGCTTGACGCTGCTG
Target: Interferon regulatory factor 3, full length, phosphomimetic (IRF3, Homo sapiens, UniProt Q14653, residues 1-427, S386D/S396D/S398D/S402D/T404D/S405D)
Chain of UniProt Q14653 (whole entry, unmodified, looked up): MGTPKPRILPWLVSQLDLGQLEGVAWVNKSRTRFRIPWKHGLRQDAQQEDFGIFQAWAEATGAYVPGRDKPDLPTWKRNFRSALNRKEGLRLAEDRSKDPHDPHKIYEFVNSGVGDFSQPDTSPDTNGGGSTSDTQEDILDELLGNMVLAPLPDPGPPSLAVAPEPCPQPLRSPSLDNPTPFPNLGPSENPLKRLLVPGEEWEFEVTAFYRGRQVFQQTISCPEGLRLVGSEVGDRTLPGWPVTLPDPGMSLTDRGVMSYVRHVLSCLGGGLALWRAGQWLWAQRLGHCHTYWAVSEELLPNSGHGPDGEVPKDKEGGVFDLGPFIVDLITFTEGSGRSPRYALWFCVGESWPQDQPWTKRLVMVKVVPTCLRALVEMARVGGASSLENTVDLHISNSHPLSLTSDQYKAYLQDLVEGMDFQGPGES
Under “fitted relative affinity”, `GACGGACTGGACACTGGGGAGGTGCTA` is recorded as -0.575 z-score.
`TCAGGAAACTTAAACTAGACTGTGCTA`: “fitted relative affinity” 0.386 z-score.
For `TTAGCTCTCGGTTTCGGTTAGTGCTAG`, “fitted relative affinity” read 4.65 z-score.
Under “fitted relative affinity”, `GACGGTATCGGTTTTGGGACGTGCTAG` is recorded as 5.65 z-score.
`GACGGTATCGACTTTCGGGTCGTGCTA`: “fitted relative affinity” 1.6 z-score.
`TTAGGTTTCGATTTTCGGTTAGTGCTA` — result for “fitted relative affinity”: 7.49 z-score.
`TTAGATTCCGGTTTCGGTTAGTGCTAG` — result for “fitted relative affinity”: 6.24 z-score.
For `TTAGGTTCCGGTTTCGCTTAGTGCTAG`, “fitted relative affinity” read 6.31 z-score.
`GACGGTTTCCGACTGGGGACGTGCTAG` — result for “fitted relative affinity”: 4.71 z-score.
For `GACGGTTCCGGTTGCGGGACGTGCTAG`, “fitted relative affinity” read 2.37 z-score.
`CTCATGTTACATTTATATCTGTGCTAG`: “fitted relative affinity” 1.24 z-score.
`GGCGCTTTTTTTCCGAGTGAGTGCTAG`: “fitted relative affinity” 0.966 z-score.
Under “fitted relative affinity”, `TTAGGCCTCCTTTTCCTTTAGTGCTAG` is recorded as 1.78 z-score.
For `GACGATTTCCTTTCCCTGACGTGCTAG`, “fitted relative affinity” read 5.72 z-score.
Under “fitted relative affinity”, `TACGAACTGAGTCTCGAGACGTGCTAG` is recorded as -0.196 z-score.
For `GACGGTCTCCCTATCCTGACGTGCTAG`, “fitted relative affinity” read 1.98 z-score.
Under “fitted relative affinity”, `TTAGTACTGAGTCTCGATTAGTGCTAG` is recorded as -0.157 z-score.
For `TACGGACTGCTTATCCTGACGTGCTAG`, “fitted relative affinity” read -0.232 z-score.
Under “fitted relative affinity”, `GACGCTTTCCTTCTCCTGACGTGCTAG` is recorded as 6.99 z-score.
Under “fitted relative affinity”, `GACGGACTGGGATTCGGGACGTGCTAG` is recorded as -0.572 z-score.
Under “fitted relative affinity”, `GTTTGTATATATTTTAACCCGTGCTAG` is recorded as 0.844 z-score.
`TTTTTTTTTTTTTTGTATTTGTGCTAG`: “fitted relative affinity” 1.71 z-score.
`TTTGGTTTCGGTTCCGGTTAGTGCTAG`: “fitted relative affinity” 11.3 z-score.

Block 3 — method: RNA Bind-n-Seq; molecule type: RNA; sample: in vitro; concentration: 365 nM; relative to: no-protein control; direction: higher = stronger binding
Target: RNA binding protein fox-1 homolog 2, RRM domain, GST-SBP tag (RBFOX2, Homo sapiens, UniProt O43251-10, residues 100-194)
Setting: natural RNA segment, single round, ends assumed
Constant ends, left off below: GGGAGUUCUACAGUCCGACGAUC … UGGAAUUCUCGGGUGCCAA
Construct (chain): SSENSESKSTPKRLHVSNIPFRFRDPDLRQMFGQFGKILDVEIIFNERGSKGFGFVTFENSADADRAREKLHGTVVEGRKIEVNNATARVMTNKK
`AGGUCUCCCACAGUGACAGCUCCUGGGUCCUUGUUCAGGAAAAGCCUGUGUGUUACCACUGCCUCAUCAGGAGGCUGCCAUUGGCAGUGGCUGCUGCUGGCCUCCCUGCA`: “RBNS enrichment (R)” 1.93.
`ACCUUGCUUAGGCCUCAGAUCCCAGCUGUGCUCUCCAAUCCAUUAAUAAAGCUGCUUUUAACCCUCUCUGGCCAUUGUAUCUAUUAUCUACUGGGAACUGGGGUGGCGGC` — result for “RBNS enrichment (R)”: 0.274.
Under “RBNS enrichment (R)”, `CCUGAUGGCACCCACACAGAGGACCUCUUUGGGGCAAGAUCCAGGUGGUCCCAUAGGUCUUGUGAAAAGGCUUUUUCAGGGAAAAAUAUUUUACUAGUCCAAUCACCCCC` is recorded as 0.464.
`AUAGGACAUAGGGUAAAGAGGCCAAGCUGCCUGUAGUUAGUAGAGAAGAAUGGAUGUGGUUCUUCUUGUGUAUUUAUUUGUAUCAUAAACACUUGGAACAACAAAGACCA`: “RBNS enrichment (R)” 2.49.
For `AAAUGUUUACUUUGUUCCCUGUCUAUAUAUGCCUUUUGAAAAAUAAACUUGUACCUCAAACUCAAACGUUUGGGUGUUUCAGAAUCACAGGCAACUCAAAAGAAGAUCUG`, “RBNS enrichment (R)” read 0.297.
Under “RBNS enrichment (R)”, `UGUGCACUUUGUGUUAAUCUCACCAAAAAUCAUCAUAGGAAAGGAUUAUGGUUUUUAGUUAUGACAUCACAAUGUGUCAAGAGUGGAACAAUAAACGUUUCCCUUGUGUU` is recorded as 0.219.
For `GAUAGGUUUGCAAUAUGUGGGAUUCAGCCUUUGAUUUCAAUAGAGCUGAGAGCUUUUAGAACAAGCAGGCAUUUAUUUAAUGUUUCCUUAGUCCAUUGGCAAGCUUUAUC`, “RBNS enrichment (R)” read 0.287.
`CAAGAUAUCUCAUGGCAUAUUAAAAGAAAAAUCUUAAUAGCAGUGUUGGCUUUUAUUUGGAUUUUUUCAUCUCAGUUUUUUCUGUGGAAUCUCCUUCAUUGGCAUUGUUA` — result for “RBNS enrichment (R)”: 0.845.
For `GCUGAAGGAGUUCUGAGUUUGUUUAGUUCUUUAUUCCAUCUCUGUGCGGCCUCCCGAGCCUACGUUCGUUCCCUCCUCCCUUAUGGUGUUGGCCUCCUGCCUGCUGUCAU`, “RBNS enrichment (R)” read 0.716.
`UAUUUGAUAGUUUGAGUCAUGGUCUUAGAUAUUAGCUAUUUGUGAGAGGAAACUGGUUUGUAACAAUACUGCAAAUAGAAACCCCAUUUCUACUGAACAUCCUAGUUUUA` — result for “RBNS enrichment (R)”: 0.438.
Under “RBNS enrichment (R)”, `GCUGCCUGUUCCCACGUGUCACCAGCACGCUGCACUCCAGAUGAAAUCCUCCUAGGACAGGAGUUUGUUUCCUGAGUGUGGAGUGAGGCUGUCAGUGGAUCCGUGCUUUG` is recorded as 0.654.
For `AGAUAAUCUUGCGUUUUUCGUCAUCUUAUUCCAGUUCUGUGGGGGAUGAGUUUUUUUGUGGGUUGCUUUUUCUUCAGUGCUAAGAAAGUUCCCUCCAACAGGAACUCUCU`, “RBNS enrichment (R)” read 0.571.

Block 4 — method: protein binding microarray; molecule type: double-stranded DNA, one strand shown; sample: in vitro; concentration: not given; relative to: not given; direction: higher = stronger binding
Target: Histone acetyltransferase KAT6A, winged helix 2, GST fusion (KAT6A, Homo sapiens, UniProt Q92794, residues 85-181)
Setting: 8-mer, flanks averaged, mean of 2 arrays, mostly near background
Construct (chain): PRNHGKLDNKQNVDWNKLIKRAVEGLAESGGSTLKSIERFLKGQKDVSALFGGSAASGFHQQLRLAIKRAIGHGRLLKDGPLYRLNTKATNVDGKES
`CAGGCAAA` gave an E-score of -0.018.
For `AACAGCTA`, the E-score was -0.149.
The E-score of `AATGTTGC` is reported as -0.00349.
The E-score of `ACCCACAG` is reported as 0.122.
The E-score of `ATACGGCA` is reported as 0.15.
With `ATTTCGTA` the E-score was -0.00622.
`GTGTTGCA` gave an E-score of 0.0343.
`ATCCATGA` has an E-score of -0.141.
For `ACACGGGA`, the E-score was 0.0395.
With `CCAGAGGG` the E-score was 0.06.
For `AACGGGCT`, the E-score was -0.224.
With `CGACAAAG` the E-score was 0.106.
For `AAACATTC`, the E-score was -0.114.
For `CGCAGTAC`, the E-score was 0.083.
`AATCCAGG` gave an E-score of 0.0865.
The E-score of `AATGGTAG` is reported as -0.00458.
For `AACCTTTC`, the E-score was -0.051.
`ACCCCGCC` has an E-score of 0.158.
`GTAATATA` has an E-score of 0.158.
The E-score of `ATCTCCGC` is reported as 0.136.
`GGTAGGAA` has an E-score of -0.0761.
`CCAGCGAG` has an E-score of 0.129.
`ACTAGCAC` has an E-score of -0.142.
`AGTTTCCA` gave an E-score of 0.139.
For `GCCGCCCC`, the E-score was 0.298.
